Results of several laboratories.
Each numbered part is a random draw from the data of one study; scales do not carry over between parts.

Set 1
Species: human
Matrix: microsomes or S9
Tested at: 2 µM
Time: 0.5 h
SMILES | remaining compound
CS(=O)(=O)N1CCC[C@@H]1CNc1ncnc2nc[nH]c12 | 94.3%
c1ccc2c(-c3cn4c5ccccc5n(CCN5CCCCC5)c4n3)cccc2c1 | 2.84%
O=C(O)c1ccc(Nc2nc(-c3ccc(Cl)cc3)cs2)cc1 | 86.9%
O=C(CN(CCc1ccccc1)C(=O)CN1C(=O)COc2ccccc21)NCC1CCCO1 (stereo not shown) | 12.3%
CN1C[C@H](NC(=O)CC2=C(c3ccccc3)CCC2=O)C[C@H]1C(=O)O | > 100%
COc1ccc(C2CC(O)=Nc3c(C(=O)O)cn(-c4cc(F)cc(F)c4)c32)c(OC)c1OC (stereo not shown) | > 99%
Nc1nc2ncc(-c3ccc(Cl)cc3)c(N)n2n1 | 99.7%
CCN1CCCC1CN(Cc1cccnc1)Cc1cccc(Oc2ncccn2)c1 (stereo not shown) | 76.3%
COc1ccc(Cl)cc1S(=O)(=O)NCCn1c(-c2ccncc2)nc2ccccc21 | 25.3%
CC1CCCC(C)C1NC(=O)Nc1cc(C#N)cn1C(C)(C)C (stereo not shown) | 15.8%
CCOC(=O)c1c(NC(=O)CCC(=O)N(CC)CC)sc2c1CC(C)(C)OC2 | 0.538%
COc1cnc(CN2CCCCC2c2ccc(CN(C)C)cc2)cc1O (stereo not shown) | 74.4%
Fc1ccccc1-c1cc(NC2CCNCC2)n2nccc2n1 | > 100%
COc1cc(Cl)c(NC(=O)c2cc(S(=O)(=O)N3CCCCC3)c[nH]2)c(OC)c1 | 5.61%

Set 2
Target: Sigma non-opioid intracellular receptor 1 (SIGMAR1, Homo sapiens, UniProt Q99720)
Chain of UniProt Q99720 (whole entry, looked up): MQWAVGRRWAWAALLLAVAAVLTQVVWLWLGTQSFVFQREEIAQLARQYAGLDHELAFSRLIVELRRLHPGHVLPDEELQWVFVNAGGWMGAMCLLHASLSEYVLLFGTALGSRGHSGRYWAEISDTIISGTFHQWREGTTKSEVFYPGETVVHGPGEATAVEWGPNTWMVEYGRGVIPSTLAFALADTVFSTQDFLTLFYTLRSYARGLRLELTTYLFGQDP
Observed: binding
Technique: radioligand binding
Tested at: 10 µM
SMILES | inhibition [%]
O=C(Nc1cccnn1)N1CCC(=Cc2cccc(Oc3ccc(C(F)(F)F)cn3)c2)CC1 | 88.5
C[C@@H]1CN(c2cc(-c3nn(C)c4ccc(OC5(C)CC5)cc34)ncn2)C[C@H](C)O1 | 58.2
COc1nc2ccc([C@@](O)(c3ccccc3)C3CCN(C(C)=O)CC3)cc2c(Cl)c1Cc1ccc(-n2cccn2)cc1 | 102
Nc1c(C(=O)NCc2ccc(C(=O)NCCCC3CCCCC3)cc2)cnn1-c1ccccc1 | 45.1
CNC(=O)Nc1ccc2c(c1)[C@]1(CC2)OC(=O)N(CC(=O)N(Cc2ccc(F)cc2)[C@@H](C)C(F)(F)F)C1=O | 17.7
O=C(Nc1cccnn1)N1CC(CC=Cc2cncc(Oc3ccc(C(F)(F)F)cn3)n2)C1 | 32.2
CC1=C(C#N)C(c2ccc3c(c2)c(NC(=O)c2ccccc2C)nn3C)C(C#N)=C(C)N1 | 37.9
CN1C(=O)[C@@H](N2CCc3cn(Cc4ccccc4)nc3C2=O)COc2ccccc21 | -1.9
COCCc1ccc(-c2c(C)nc3c(N4CCOCC4)ccnn23)cn1 | -2.53
CC(C)CC(=O)N1CCc2nc(-c3ccc(Br)cc3)nc(N(C)Cc3ccccc3)c2C1 | 49.4
O=C([C@H]1C[C@H](O)CN1c1ccc(Cl)cc1)N1CC2COCC(C1)N2Cc1ccc(Cl)cc1 | 69.5
CN1CCN(C(=O)C(C)(C)c2ccc(C(=O)Nc3cn4cc(-c5ccncc5)ccc4n3)cc2)CC1 | 16.9
C[C@@]1(Cc2ccc(C#N)cc2)C(=O)N(c2cc(Cl)cc(Cl)c2)c2ncc(C(=O)NC3(c4nc(C5CCC5)no4)CC3)n21 | -16.2
CS(=O)(=O)NCC[C@H](NC(=O)c1cncc2c1cnn2-c1ccc(F)cc1)c1ccnc(S(C)(=O)=O)c1 | 7.62
COc1cccc(CNC(=O)c2nc3scc(COCc4ccc(C(=O)O)cc4)c3c(=O)[nH]2)c1 | -13.8
COc1cc(-c2cn(C3CCc4ccccc4N(CC(F)(F)F)C3=O)nn2)ccc1-n1ccc(C)n1 (stereo not shown) | 23.2
CC(=O)N1CCC(c2ccc(C(=O)NC(=N)N)cc2C(F)(F)F)CC1 | -27.9
O=C1c2ccc(Nc3ccc(F)cc3F)cc2CCc2ccc(OC[C@H](O)CO)cc21 | 48.5
CN([C@@H]1CCc2c(CC(=O)O)c3cc(S(C)(=O)=O)ccc3n2C1)S(=O)(=O)c1ccc(F)cc1 | -13.9
O=C(NC[C@@H]1[C@H]2CN(C(=O)OCc3cc(C(F)(F)F)cc(C(F)(F)F)c3)C[C@@H]12)c1ccc2[nH]nnc2c1 | 51.2
O=C1CCc2cc(Nc3cc(OC4CCOCC4)c([N+](=O)[O-])cc3Cl)ccc2N1 | 11.7
Cc1nc(Cc2cccc(C(F)(F)F)c2)sc1-c1ccc(C(N)=O)nc1 | 11.7
Cc1c(N2CCCC2)nc2ccc(Br)cc2c1C(=O)NC[C@H](CCC(=O)O)c1ccccc1Cl | -18.5
O[C@]1(C(F)(F)F)CCCC[C@H]1Nc1ccc(F)cc1 | 36.2
Cc1nc(N2CC[C@@H](O)C2)ncc1-c1cc(C(F)(F)F)cc2[nH]ncc12 | 45.5

Set 3
Target: Ephrin type-A receptor 8 (EPHA8, Homo sapiens, UniProt P29322)
Chain of UniProt P29322 (whole entry, looked up): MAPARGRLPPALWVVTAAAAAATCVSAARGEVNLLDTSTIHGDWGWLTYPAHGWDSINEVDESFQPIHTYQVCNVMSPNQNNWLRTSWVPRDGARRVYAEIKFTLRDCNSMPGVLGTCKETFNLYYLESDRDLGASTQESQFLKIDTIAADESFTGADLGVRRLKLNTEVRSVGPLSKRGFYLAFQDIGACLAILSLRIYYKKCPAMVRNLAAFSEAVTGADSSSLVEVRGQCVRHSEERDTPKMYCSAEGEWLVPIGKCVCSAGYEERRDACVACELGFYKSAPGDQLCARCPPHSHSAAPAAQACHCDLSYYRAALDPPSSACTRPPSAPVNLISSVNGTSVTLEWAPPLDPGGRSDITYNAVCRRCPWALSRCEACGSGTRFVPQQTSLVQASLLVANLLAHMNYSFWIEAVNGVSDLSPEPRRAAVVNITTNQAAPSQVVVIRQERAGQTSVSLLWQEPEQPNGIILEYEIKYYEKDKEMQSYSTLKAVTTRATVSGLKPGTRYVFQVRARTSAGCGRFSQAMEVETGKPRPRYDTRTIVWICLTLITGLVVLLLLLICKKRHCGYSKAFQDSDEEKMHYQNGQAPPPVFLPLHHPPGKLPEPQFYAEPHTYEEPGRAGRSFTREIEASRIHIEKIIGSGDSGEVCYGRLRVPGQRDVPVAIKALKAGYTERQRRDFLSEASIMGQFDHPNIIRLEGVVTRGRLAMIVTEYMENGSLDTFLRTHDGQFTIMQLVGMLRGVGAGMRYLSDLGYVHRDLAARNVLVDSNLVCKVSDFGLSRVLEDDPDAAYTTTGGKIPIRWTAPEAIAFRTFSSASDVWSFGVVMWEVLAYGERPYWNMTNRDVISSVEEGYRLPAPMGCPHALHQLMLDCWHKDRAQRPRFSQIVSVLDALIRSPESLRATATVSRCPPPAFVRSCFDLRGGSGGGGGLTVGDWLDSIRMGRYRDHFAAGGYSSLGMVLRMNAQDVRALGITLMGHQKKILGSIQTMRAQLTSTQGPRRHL
Observed: enzyme activity
Mode: inhibitor
Tested at: 0.5 µM
Baseline: control
Compound | remaining activity
CCN(CC)CCNC(=O)c1c(C)[nH]c(/C=C2\C(=O)Nc3ccc(Cl)cc32)c1C | 99.5%
CCN(CC)C(=O)c1ccc(Nc2nc(OCC3CCCCC3)c3[nH]cnc3n2)cc1 | 92.1%
Cc1cn(-c2cc(NC(=O)c3ccc(C)c(Nc4nccc(-c5cccnc5)n4)c3)cc(C(F)(F)F)c2)cn1 | 28.4%
CN(C)C[C@H]1CCn2c(c(C3=C(c4cn(C)c5ccccc45)C(=O)NC3=O)c3ccccc32)C1 | 102%
CCOc1nc(NC(=O)Cc2cc(OC)ccc2OC)cc(N)c1C#N | 84.2%
Ic1cccc(CSc2nnc(-c3ccncc3)o2)c1 | 91.5%
CN([C@@H](Cc1ccc(OS(=O)(=O)c2cccc3cnccc23)cc1)C(=O)N1CCN(c2ccccc2)CC1)S(=O)(=O)c1cccc2cnccc12 | 99.6%
COc1cc2c(cc1OC)-c1[nH]nc(Nc3cccc(F)c3)c1C2 | 94.2%
COc1cc2ncnc(Nc3ccc(O)c(Br)c3)c2cc1OC | 88.3%
O=C1c2ccccc2-c2n[nH]c3cccc1c23 | 92.5%
Cn1nc2c3c(cccc31)C(=O)c1ccccc1-2 | 99.4%
Nc1cccc(-c2cc3c(Oc4cccc(O)c4)ncnc3[nH]2)c1 | 57.5%
c1ccc(-c2[nH]ncc2-c2ccnc3ccccc23)nc1 | 94.6%
Cc1nc2cc3nc(-c4cccs4)cnc3cc2n1C | 100%
O=C(NC(NC(=S)Nc1ccc(F)c([N+](=O)[O-])c1)C(Cl)(Cl)Cl)C(c1ccccc1)c1ccccc1 (stereo not shown) | 104%
O=C(Nc1cccc(Nc2nccc(Nc3cccc(C(F)(F)F)c3)n2)c1)C1CC1 | 96.3%
N#C/C(=C\c1ccc(O)c(O)c1)C(=O)NCc1ccccc1 | 92%
O=c1cc(-c2cccc3c2Sc2ccccc2S3)oc(N2CCOCC2)c1 | 110%
COc1cc2ncnc(Nc3cccc(Cl)c3)c2cc1OC | 81.5%
C[C@@H]1CCN(C(=O)CC#N)C[C@@H]1N(C)c1ncnc2[nH]ccc12 | 109%
Cc1cc2ncc(-c3ccccc3)nc2cc1C | 94.5%
O=C1C(Cl)=C(N2C(=O)CCC2=O)C(=O)c2ccccc21 | 107%
N#Cc1c(NC(=O)c2cccc3ccccc23)sc2c1CCCC2 | 104%
c1ccc(-c2cnc(Nc3ccc(OCCN4CCCC4)cc3)s2)cc1 | 96.2%

Set 4
Target: Calcium/calmodulin-dependent protein kinase type II subunit alpha (CAMK2A, Homo sapiens, UniProt Q9UQM7)
Chain of UniProt Q9UQM7 (whole entry, looked up): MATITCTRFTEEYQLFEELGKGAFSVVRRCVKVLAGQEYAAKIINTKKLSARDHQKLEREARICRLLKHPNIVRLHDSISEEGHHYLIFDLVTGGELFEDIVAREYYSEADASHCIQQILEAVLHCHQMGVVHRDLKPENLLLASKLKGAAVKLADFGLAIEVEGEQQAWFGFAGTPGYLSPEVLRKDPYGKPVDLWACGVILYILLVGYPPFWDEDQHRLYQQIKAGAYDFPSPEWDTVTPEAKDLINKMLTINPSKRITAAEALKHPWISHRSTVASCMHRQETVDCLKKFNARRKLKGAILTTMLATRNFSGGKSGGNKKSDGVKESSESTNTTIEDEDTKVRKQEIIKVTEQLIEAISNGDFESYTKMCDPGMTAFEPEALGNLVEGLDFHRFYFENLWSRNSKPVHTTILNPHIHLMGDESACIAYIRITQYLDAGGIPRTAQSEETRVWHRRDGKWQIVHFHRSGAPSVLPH
Observed: enzyme activity
Mode: inhibitor
Tested at: 10 µM
SMILES | inhibition [%]
CCn1cc(C(=O)O)c(=O)c2cc(F)c(N3CCNCC3)nc21 | -2
O=c1ccn([C@H]2C[C@H](O)[C@@H](COP(=O)(O)O)O2)c(=O)[nH]1 | 6
Cc1nc2c([nH]1)-c1ccccc1N(C(=O)c1ccc(NC(=O)c3ccccc3-c3ccccc3)cc1)CC2 | -7
C[C@@H]1O[C@@H](OC[C@H]2O[C@@H](Oc3cc(O)c4c(c3)O[C@H](c3ccc(O)c(O)c3)CC4=O)[C@H](O)[C@@H](O)[C@@H]2O)[C@H](O)[C@H](O)[C@H]1O | -6
COc1cc2oc(-c3ccccc3)cc(=O)c2c(O)c1OC | 9
O=C(O)[C@H](O)Cc1ccc(O)c(O)c1 | 12
COc1cc2nc(N3CCN(C(=O)C4COc5ccccc5O4)CC3)nc(N)c2cc1OC (stereo not shown) | 5
CC(=C(CCOC(=O)C(C)C)SSC(CCOC(=O)C(C)C)=C(C)N(C=O)Cc1cnc(C)nc1N)N(C=O)Cc1cnc(C)nc1N (stereo in doubt) | -3
CC(=O)OCC(=O)[C@@]12N=C(C)O[C@@H]1C[C@H]1[C@@H]3CCC4=CC(=O)C=C[C@]4(C)[C@H]3[C@@H](O)C[C@@]12C | -13
C[C@@H]1O[C@@H](Oc2cc(O)c3c(c2)O[C@H](c2ccc(O)c(O)c2)[C@@H](O)C3=O)[C@H](O)[C@H](O)[C@H]1O | 13
